Experimental data gathered from unrelated publications.
Numbered parts are unrelated; each lists some results of a single study.
Sequence of UniProt Q9H2X6 (whole entry, looked up): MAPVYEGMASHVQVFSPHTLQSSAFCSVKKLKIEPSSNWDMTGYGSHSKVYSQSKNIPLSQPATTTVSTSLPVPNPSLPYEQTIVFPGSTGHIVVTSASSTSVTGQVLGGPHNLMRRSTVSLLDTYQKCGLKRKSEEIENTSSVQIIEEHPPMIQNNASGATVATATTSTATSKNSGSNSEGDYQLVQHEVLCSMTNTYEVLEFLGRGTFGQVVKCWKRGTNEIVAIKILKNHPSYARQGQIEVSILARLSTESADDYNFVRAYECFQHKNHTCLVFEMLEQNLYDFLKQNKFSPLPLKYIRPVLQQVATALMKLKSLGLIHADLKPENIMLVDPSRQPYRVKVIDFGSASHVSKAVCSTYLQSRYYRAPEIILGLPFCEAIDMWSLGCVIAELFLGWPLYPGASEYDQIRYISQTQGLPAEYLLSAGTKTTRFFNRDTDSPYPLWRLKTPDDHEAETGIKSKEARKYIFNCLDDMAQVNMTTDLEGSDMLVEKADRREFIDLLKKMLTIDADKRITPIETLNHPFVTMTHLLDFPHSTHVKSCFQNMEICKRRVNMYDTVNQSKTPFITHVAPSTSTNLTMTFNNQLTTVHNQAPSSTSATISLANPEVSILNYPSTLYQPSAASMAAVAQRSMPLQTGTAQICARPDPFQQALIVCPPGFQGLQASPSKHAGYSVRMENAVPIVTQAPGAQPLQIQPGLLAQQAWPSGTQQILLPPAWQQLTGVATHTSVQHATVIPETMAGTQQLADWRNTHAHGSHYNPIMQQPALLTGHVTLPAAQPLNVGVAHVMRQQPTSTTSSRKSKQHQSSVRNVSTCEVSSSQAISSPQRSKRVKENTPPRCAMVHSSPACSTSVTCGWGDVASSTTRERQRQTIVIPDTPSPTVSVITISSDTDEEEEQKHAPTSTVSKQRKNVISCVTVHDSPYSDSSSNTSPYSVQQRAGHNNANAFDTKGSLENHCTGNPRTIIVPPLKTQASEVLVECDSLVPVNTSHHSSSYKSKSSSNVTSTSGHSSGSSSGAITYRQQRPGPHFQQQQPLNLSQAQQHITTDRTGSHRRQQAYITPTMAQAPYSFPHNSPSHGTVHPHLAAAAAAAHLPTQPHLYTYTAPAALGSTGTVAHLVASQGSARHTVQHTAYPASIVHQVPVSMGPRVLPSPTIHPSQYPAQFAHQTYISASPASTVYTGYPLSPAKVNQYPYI
Sequence of UniProt Q16816 (whole entry, looked up): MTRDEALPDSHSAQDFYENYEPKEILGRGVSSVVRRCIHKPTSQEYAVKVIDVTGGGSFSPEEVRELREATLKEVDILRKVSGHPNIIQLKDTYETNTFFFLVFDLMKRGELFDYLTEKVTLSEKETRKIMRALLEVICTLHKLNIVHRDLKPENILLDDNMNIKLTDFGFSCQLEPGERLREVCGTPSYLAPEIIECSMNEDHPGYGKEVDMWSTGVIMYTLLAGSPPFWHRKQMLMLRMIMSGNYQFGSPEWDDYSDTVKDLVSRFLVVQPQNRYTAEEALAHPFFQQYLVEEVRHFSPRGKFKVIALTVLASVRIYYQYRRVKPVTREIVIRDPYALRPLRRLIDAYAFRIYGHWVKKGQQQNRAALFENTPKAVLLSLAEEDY
Sequence of UniProt Q9UEE5 (whole entry, looked up): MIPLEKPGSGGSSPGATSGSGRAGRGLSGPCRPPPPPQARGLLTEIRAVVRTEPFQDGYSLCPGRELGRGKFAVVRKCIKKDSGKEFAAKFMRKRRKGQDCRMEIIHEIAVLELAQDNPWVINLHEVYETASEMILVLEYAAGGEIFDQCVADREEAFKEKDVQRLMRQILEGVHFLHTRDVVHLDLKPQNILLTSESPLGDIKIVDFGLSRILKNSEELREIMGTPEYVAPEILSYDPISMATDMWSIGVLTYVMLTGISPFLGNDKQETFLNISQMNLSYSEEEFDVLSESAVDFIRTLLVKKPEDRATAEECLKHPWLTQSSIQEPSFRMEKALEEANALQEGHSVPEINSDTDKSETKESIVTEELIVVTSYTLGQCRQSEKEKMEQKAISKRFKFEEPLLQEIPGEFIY
Sequence of UniProt Q12851 (whole entry, looked up): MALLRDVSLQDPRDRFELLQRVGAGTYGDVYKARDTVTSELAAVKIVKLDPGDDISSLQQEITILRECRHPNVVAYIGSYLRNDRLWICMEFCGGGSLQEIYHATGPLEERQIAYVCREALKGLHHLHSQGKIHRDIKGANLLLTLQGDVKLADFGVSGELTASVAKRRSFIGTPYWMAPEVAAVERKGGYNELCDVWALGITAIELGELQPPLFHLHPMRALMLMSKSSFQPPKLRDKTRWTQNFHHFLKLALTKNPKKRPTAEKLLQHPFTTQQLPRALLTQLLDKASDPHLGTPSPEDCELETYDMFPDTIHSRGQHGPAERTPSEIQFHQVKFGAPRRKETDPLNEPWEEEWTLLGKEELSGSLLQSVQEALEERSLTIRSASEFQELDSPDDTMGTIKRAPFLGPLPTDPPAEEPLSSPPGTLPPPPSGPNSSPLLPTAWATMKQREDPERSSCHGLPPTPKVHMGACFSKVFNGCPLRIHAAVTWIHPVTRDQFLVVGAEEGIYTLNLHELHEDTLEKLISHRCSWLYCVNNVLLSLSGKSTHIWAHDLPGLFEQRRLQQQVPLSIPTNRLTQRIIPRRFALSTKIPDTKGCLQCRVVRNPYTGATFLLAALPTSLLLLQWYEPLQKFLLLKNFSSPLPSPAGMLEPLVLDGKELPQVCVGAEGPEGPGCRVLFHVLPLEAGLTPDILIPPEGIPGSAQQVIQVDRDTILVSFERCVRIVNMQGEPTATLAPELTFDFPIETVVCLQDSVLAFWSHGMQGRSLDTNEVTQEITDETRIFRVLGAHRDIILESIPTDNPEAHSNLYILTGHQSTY
Sequence of UniProt Q9H4B4 (whole entry, looked up): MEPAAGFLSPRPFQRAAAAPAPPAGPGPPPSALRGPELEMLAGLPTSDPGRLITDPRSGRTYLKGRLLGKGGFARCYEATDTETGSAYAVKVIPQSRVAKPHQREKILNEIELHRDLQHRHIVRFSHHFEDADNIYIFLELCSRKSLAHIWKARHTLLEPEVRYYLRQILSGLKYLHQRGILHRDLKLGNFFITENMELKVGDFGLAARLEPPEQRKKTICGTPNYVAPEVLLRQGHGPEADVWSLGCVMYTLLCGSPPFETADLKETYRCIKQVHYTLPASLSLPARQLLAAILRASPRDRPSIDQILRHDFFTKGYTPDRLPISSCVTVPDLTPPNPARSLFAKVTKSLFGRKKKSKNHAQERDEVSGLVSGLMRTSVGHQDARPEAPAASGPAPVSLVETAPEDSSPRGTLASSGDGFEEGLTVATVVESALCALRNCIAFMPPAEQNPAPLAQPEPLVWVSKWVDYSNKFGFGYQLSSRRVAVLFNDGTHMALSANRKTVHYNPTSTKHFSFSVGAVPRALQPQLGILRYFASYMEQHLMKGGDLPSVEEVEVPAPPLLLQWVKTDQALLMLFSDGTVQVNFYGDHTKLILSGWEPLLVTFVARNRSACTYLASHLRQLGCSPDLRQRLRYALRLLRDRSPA
Sequence of UniProt P22612 (whole entry, looked up): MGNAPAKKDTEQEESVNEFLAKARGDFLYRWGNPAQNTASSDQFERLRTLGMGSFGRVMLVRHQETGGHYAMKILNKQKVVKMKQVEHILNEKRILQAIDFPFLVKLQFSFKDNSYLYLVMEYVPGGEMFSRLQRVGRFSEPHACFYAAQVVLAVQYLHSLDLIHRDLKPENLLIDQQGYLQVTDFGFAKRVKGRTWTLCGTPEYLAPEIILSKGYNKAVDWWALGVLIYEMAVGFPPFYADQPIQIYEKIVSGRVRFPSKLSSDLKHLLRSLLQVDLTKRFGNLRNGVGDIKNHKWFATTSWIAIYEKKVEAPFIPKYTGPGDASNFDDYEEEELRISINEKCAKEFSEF

Series 1
Compound: O=C1NC(=O)/C(=C/c2ccc3c(c2)OC(F)(F)O3)S1
Effect on: enzyme activity
Mode: inhibitor
Tested at: 0.5 µM
Reference: control
Measurement: remaining activity
STK17A (Homo sapiens, UniProt Q9UEE5): 90.4%
CAMK2B (Homo sapiens, UniProt Q13554): 99.8%
PHKG1 (Homo sapiens, UniProt Q16816): 94.2%
EPHB1 (Homo sapiens, UniProt P54762): 95.6%
PRKACG (Homo sapiens, UniProt P22612): 102%
PDPK1 (Homo sapiens, UniProt O15530): 100%
Cyclin-dependent kinase 1, with cyclin B (CDK1, Homo sapiens, UniProt P06493): 99.6%
HIPK2 (Homo sapiens, UniProt Q9H2X6): 104%
SRMS (Homo sapiens, UniProt Q9H3Y6): 103%
BLK (Homo sapiens, UniProt P51451): 99.2%
MAP4K4 (Homo sapiens, UniProt O95819): 95.3%
AXL (Homo sapiens, UniProt P30530): 107%
DYRK3 (Homo sapiens, UniProt O43781): 100%
RPS6KA6 (Homo sapiens, UniProt Q9UK32): 96.5%
WNK3 (Homo sapiens, UniProt Q9BYP7): 91.5%
MAPKAPK3 (Homo sapiens, UniProt Q16644): 94.2%

Series 2
Compound: CO[C@@H](C)c1c(Nc2ccc([C@H](N(C)C(=O)C3CCS(=O)(=O)CC3)C(F)(F)F)cc2)cnc2cc(Cl)nn12
Method: competition with immobilised ligand
Tested at: 1 µM
Measurement: remaining binding
BMPR2 (Homo sapiens, UniProt Q13873); cell-free assay: 91%
PLK3 (Homo sapiens, UniProt Q9H4B4); cell-free assay: 86%
EGFR (Homo sapiens, UniProt P00533, G719C); cell-free assay: 100%
MAST1 (Homo sapiens, UniProt Q9Y2H9); binding: 43%
PIK3CA (Homo sapiens, UniProt P42336, H1047L); cell-free assay: 92%
MAP3K20 (Homo sapiens, UniProt Q9NYL2); cell-free assay: 100%
KIT (Homo sapiens, UniProt P10721, V559D); cell-free assay: 100%
IRAK1 (Homo sapiens, UniProt P51617); cell-free assay: 93%
MYLK2 (Homo sapiens, UniProt Q9H1R3); cell-free assay: 83%
FLT3 (Homo sapiens, UniProt P36888); cell-free assay: 68%
PIKFYVE (Homo sapiens, UniProt Q9Y2I7); cell-free assay: 54%
MARK2 (Homo sapiens, UniProt Q7KZI7); cell-free assay: 100%
MAP4K2 (Homo sapiens, UniProt Q12851); cell-free assay: 100%

Series 3
Cell line: mouse MPNST tumor cells
Method: high-content immunofluorescence imaging
Refers to: nuclear SOX9
Tested at: 10 µM
Time: 12 h
Notes: mean of 2 replicates
Reference: DMSO control
Reading: higher = more nuclear SOX9
Measurement: nuclear SOX9 intensity
CCCC(C)NC(=O)c1ccc(Cl)c(Cl)c1 (centres unmarked): 113 % of DMSO
C[N+]1(CC2CCCCCC2)CCC(NC(=O)C2c3cc(Cl)ccc3Oc3ccc(Cl)cc32)CC1 (centres unmarked): 83.2 % of DMSO
CC(NC(=O)Cc1cc(F)cc(F)c1)C(=O)NC1C(=O)N(C)c2ccccc2-c2ccccc21 (centres unmarked): 109 % of DMSO
NC(=O)n1c(O)c(C(=O)c2cccs2)c2cc(Cl)ccc21: 86.3 % of DMSO

Series 4
Species: mouse
Medium: microsomes or S9
Tested at: 2 µM
Time: 0.5 h
Measurement: remaining compound
CCN(CCCNC(=O)Nc1cc(Br)cn(C)c1=O)S(C)(=O)=O: 11.6%
Cc1cc(C)n(-c2nc3cc(Cl)ccc3nc2N2CCN(c3ccccn3)CC2)n1: 5%
O=C1CC(N2CCC3(CC2)OCCO3)C(=O)N1c1ccc2c(c1)OCO2 (centres unmarked): 39.4%
CCOc1ccc(C(=O)N2CCc3cc(OC)c(OC)cc3C2CC2CC3c4cc(OC)c(OC)cc4CCN3CC2CC)cc1 (centres unmarked): 6.18%
O=C1Nc2c(c3cc(O)ccc3n2Cc2ccccc2)CNC1Cc1ccccc1 (centres unmarked): 0%
c1ccc(CNc2nc3ccccc3c3nncn23)cc1: 5.03%
COC(=O)CC(c1ccc(OC)c(OC(C)C)c1)c1c(O)cc(C)[nH]c1=O (centres unmarked): 61.9%
c1ccc(-c2csc3nc(-c4cccnc4)nc(Oc4ccc5ccncc5c4)c23)cc1: 22.7%

A few entries again (series 1):
CAMK2B (Homo sapiens, UniProt Q13554): 99.8%
WNK3 (Homo sapiens, UniProt Q9BYP7): 91.5%
EPHB1 (Homo sapiens, UniProt P54762): 95.6%
